Earlier results, collected from citations in different studies.
Compare with care: the assays were run in different laboratories. ± marks the error that the study gave.
UniProt P23977, sequence (whole entry, looked up): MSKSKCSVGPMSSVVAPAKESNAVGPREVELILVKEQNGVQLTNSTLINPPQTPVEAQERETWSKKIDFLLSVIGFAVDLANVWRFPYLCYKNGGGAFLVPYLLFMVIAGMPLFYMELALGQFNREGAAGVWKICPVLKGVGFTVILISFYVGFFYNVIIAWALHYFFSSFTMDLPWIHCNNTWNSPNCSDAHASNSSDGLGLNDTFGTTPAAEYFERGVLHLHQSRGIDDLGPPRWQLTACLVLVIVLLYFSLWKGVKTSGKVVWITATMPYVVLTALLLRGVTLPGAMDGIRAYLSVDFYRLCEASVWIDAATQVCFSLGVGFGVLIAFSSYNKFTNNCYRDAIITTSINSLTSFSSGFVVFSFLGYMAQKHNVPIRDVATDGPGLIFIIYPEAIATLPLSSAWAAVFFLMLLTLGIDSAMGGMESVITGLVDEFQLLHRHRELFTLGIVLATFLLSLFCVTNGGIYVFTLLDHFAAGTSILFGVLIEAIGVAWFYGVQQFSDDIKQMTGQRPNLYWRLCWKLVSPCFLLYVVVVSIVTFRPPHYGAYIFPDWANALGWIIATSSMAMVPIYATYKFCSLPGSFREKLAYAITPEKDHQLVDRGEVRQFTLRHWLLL
UniProt P35372, sequence (whole entry, looked up): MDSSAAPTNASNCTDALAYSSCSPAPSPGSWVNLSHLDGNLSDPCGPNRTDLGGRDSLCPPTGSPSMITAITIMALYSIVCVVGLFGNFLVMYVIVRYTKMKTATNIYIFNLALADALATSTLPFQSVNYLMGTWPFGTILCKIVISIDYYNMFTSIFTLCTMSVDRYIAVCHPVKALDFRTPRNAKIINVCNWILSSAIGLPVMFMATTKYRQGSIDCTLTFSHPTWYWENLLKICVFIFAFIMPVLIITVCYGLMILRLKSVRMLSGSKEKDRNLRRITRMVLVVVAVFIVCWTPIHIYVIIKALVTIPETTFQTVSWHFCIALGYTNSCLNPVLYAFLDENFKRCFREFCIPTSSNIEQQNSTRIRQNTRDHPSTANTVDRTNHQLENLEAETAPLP
UniProt P41143, sequence (whole entry, looked up): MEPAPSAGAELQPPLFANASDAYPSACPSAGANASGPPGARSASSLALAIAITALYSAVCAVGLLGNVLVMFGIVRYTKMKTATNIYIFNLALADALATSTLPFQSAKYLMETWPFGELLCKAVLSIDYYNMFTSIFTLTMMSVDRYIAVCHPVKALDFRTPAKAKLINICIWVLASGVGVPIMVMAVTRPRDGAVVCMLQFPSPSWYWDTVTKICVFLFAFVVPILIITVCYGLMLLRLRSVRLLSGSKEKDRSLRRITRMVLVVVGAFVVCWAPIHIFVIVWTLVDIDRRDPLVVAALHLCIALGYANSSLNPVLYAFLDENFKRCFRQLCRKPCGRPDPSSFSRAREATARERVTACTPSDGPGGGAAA

N[C@@H](Cc1ccc(N(CCCl)CCCl)cc1)C(=O)O  CC50 (HPC pulp cells): > 200 µM
C[C@@H]1CCO[C@H]2Cn3cc(C(=O)NCc4ccc(F)cc4F)c(=O)c(O)c3C(=O)N12  CC50 (HOS; item: ATP level): > 250 µM
CC(=O)Nc1ccc(O)cc1  CC50 (Huh-7; cytotoxicity; lowest literature value): 137 µM
C=C1[C@@H](O)C[C@H]2C(C)(C)[C@@H](Cl)[C@H](Cl)C[C@]2(C)[C@H]1C[C@H](O)[C@H]1CC(=O)NC1=O  IC50 (P388; cytotoxicity; literature value): 2.4e-06 mM
O=[N+]([O-])c1cc[n+]([O-])c2ccccc12  lowest effective concentration (primary human hepatocytes; DNA damage, comet): 2.5 µM
NC(=O)CI  EC50 (CHO; DNA damage): 34.1 µM
CN1C/C(=C\c2ccc(Cl)cc2Cl)C/C(=C/c2ccc(Cl)cc2Cl)C1  Ki (Sodium-dependent dopamine transporter (Slc6a3, Rattus norvegicus, UniProt P23977); inhibitor): 6.9 µM
C=CCN(CC=C)CCc1c[nH]c2ccc(F)cc12  Ki (Delta-type opioid receptor (OPRD1, Homo sapiens, UniProt P41143)): > 10 µM
CC1(C)CCCC(C)(C)N1[O]  IC50 (HaCaT; cytotoxicity; 24 h): 2.66 mM
Cl.Cl.O=C(Nc1ccc(O[C@H]2CCNC2)c(-c2ccc(F)cc2)c1)c1ccc(O[C@H]2CCNC2)c(-c2ccc(F)c(F)c2)c1  selectivity ratio (Wnt-activated cancer cells; cytotoxicity; baseline: Wnt-activated over Wnt-latent cells): 2 to 4 fold
C=CCN(CC=C)CCc1c[nH]c2ccccc12  Ki (Mu-type opioid receptor (OPRM1, Homo sapiens, UniProt P35372); binding; added: [3H]DAMGO): > 10 µM
CNC(C)C1CCC(N)C(OC2C(N)CC(N)C(OC3OCC(C)(O)C(NC)C3O)C2O)O1 (centres unmarked)  CC50 (MDCK; cytotoxicity): 780 ± 100 µM
CCCCCOc1ccc(-c2cc(-c3ccc(C(=O)N[C@H]4C[C@@H](O)[C@@H](O)NC(=O)[C@@H]5[C@@H](O)[C@@H](C)CN5C(=O)[C@H]([C@H](O)CC(N)=O)NC(=O)[C@H]([C@H](O)[C@@H](O)c5ccc(O)c(OS(=O)(=O)O)c5)NC(=O)[C@@H]5C[C@@H](O)CN5C(=O)[C@H]([C@@H](C)O)NC4=O)cc3)no2)cc1  in vitro intrinsic biliary clearance (sandwich-cultured human hepatocytes; no albumin): 14 ± 9 µL/min/mg
COc1ccc2nc3cc(Cl)ccc3c(Nc3cc(CN4CCCC4)c(O)c(CN4CCCC4)c3)c2n1  CC50 (A549-ACE2): 11.5 µM

For quick reference, copied from above:
NC(=O)CI  EC50 (CHO; DNA damage): 34.1 µM
CN1C/C(=C\c2ccc(Cl)cc2Cl)C/C(=C/c2ccc(Cl)cc2Cl)C1  Ki (Sodium-dependent dopamine transporter (Slc6a3, Rattus norvegicus, UniProt P23977); inhibitor): 6.9 µM
